Assay results of several laboratories.
Parts stem from different laboratories: compare values within a part only. Substitutions count along the parent as printed.

Sample 1 — target: CCNE1, cyclin fold, Cln2 fusion (human); method: yeast growth competition, sequencing; medium: yeast; setting: strong parent motif; relative to: not given; reading: higher = stronger binding
Starting sequence: CDKN1C docking peptide (human); TSACRSLFGPVDH; partner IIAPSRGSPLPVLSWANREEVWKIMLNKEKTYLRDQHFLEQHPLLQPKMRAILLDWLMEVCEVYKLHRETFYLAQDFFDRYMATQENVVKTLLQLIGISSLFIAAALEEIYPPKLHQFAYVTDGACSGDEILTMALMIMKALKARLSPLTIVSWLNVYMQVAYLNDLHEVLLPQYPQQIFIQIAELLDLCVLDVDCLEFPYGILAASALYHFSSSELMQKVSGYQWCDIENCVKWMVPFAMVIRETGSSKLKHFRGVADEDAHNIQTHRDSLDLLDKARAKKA
Variant	normalised enrichment score
D12A	1.18
H13A	1.83
R5A	-0.124
R5K F8L	0.0305
V11A	2.16
F8A	0.239
P10A	1.5

Sample 2 — method: RNA Bind-n-Seq; form: RNA; medium: in vitro; concentration: 365 nM; relative to: no-protein control; reading: higher = stronger binding
Target: RNA binding protein fox-1 homolog 2, RRM domain, GST-SBP tag (RBFOX2, Homo sapiens, UniProt O43251-10, residues 100-194)
Setting: natural RNA segment, single round, ends assumed
Construct (chain): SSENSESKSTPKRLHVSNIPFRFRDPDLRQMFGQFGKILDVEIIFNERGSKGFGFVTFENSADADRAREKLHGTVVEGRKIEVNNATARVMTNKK
Oligonucleotide	RBNS enrichment (R)
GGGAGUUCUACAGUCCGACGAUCUGUCCCAGCCUCCAGCAAGGGCACAGCUCUGUCCCCUGCCUUUCUCUCCCUUUGUCCCCACUGCAUGUUGACACAAGUAUGGAAGUGGAGCCUGGUUAGAACUUGUUUCUUGGAAUUCUCGGGUGCCAA	3.73
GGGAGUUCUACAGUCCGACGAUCUUUUUCCUUUGGCUGCCUUUUGUUUGUUUGUUUGUUUGUUGUUCUUGUGGGGAGGGCUCAGGAAUGAUUUAACCCCCCCUAAGAUUAUGGUUGGGUCAGUACAGAUUCCAUGGAAUUCUCGGGUGCCAA	52.3
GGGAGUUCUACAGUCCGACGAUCUCCUGCUUUCUGCCCAAGAGUGUGUGUAUGAGGUAAAUCUGUGGCAUAAUGUACCAUUGGCUCACACCAGCUGUACAUAUGUGUACAUAGCAGAAUCUAAUAAAGCCCUCUGGAAUUCUCGGGUGCCAA	0.235
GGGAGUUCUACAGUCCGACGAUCACAAAAAAUGUUUAAUUUAUGCAACAAGCAUGUUUGUGCAAAUUUCAUGGGACUUUAAAAAGAAUAAGUAUUUGAGAAAAUAUCUGGUUCACUUACACUACAUUUACUGUUGGAAUUCUCGGGUGCCAA	5.59
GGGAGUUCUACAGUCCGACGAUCUGCUGGGGACAUUCCAGGCAGAUGAGCAGCCAUGCCCCAUAACGGCGUGCCCACAGUGGCCGGGCCAUGGCUUAGGCUUCCCUCAUGGUCACUUUGCCCAUUACGUCAGAUGGAAUUCUCGGGUGCCAA	0.189
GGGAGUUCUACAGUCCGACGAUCAACCCUGUCUUGAGAAAAACCAAUGAACAAAAAGGAAUUCCUUUCUUAAAAACGUUUAAUGCCAGGCUGUGGUCAAAAUCUCUAUUUUAUUUGUUUCUCCAGUAUAUAGCUGGAAUUCUCGGGUGCCAA	0.98
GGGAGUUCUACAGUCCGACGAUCCAGGUCUUUCACUGCAGAUGGGGCUGCUGUGGGAGUUGGGACUUGUUUGUUUUCCUUUUUGAGUUCACGUUGGAUCCUUUCUUGUACAACUUCUGCGGAAGGACACAGUAUGGAAUUCUCGGGUGCCAA	0.915
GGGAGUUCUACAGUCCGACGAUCCCAGCCAGUGUGGGUCUGAACAUCCCCGCCCACCCCCAGACUGCAUUCUCAUCAGGGUUUCUUGUGCCCUUCUGCUGUGGCAGUGACAACUGUGCCUAGCCGGGGCUGCCUGGAAUUCUCGGGUGCCAA	1.02

Sample 3 — method: protein-binding microarray; form: double-stranded DNA, one strand shown; medium: in vitro; concentration: 2540 nM top; setting: 60-bp whole probe; added: salmon DNA 0.4 mg/ml; relative to: random background probes; reading: higher = stronger binding; constant ends, left off below: GCCTAGCAC … GTCTTGATTCGCTTGACGCTGCTG
Target: Interferon regulatory factor 3, full length, phosphomimetic (IRF3, Homo sapiens, UniProt Q14653, residues 1-427, S386D/S396D/S398D/S402D/T404D/S405D)
Target sequence (chain): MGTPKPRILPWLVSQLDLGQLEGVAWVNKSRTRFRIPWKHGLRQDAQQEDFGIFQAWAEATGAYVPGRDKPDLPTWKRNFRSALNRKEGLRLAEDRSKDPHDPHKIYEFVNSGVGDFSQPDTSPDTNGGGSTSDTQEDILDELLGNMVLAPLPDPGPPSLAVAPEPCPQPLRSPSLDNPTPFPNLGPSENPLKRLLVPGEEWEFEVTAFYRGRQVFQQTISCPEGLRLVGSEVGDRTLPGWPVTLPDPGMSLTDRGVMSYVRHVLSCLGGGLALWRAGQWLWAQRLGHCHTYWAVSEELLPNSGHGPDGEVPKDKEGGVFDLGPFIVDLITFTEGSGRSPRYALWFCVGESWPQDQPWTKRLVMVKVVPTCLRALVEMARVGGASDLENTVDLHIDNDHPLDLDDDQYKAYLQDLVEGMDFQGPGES
Oligonucleotide	fitted relative affinity [z-score]
TTAGAACTGGGGACTGTATTAGTGCTA	-0.71
GACGGACTGGGACTAGGGACGTGCTAG	-0.78
TCTGTAATTCTTAGAACAGCGTGCTAG	-0.191
TTAGATATCGGGACTGGATTAGTGCTA	-0.0138
GACGGTTCCGGTTTCGGGCCGTGCTAG	5.5
TTAGGACTGGACTTTCGTTTAGTGCTA	0.287
TCAAGCCTCAGGCCTCACACTGTGCTA	-1.11
GACGGTTTCGGTTCCGGGGCGTGCTAG	10.4
TCAGTTGTACTTTCTATCACTGTGCTA	1.98

Single results of other studies
Substance	target	assay	test system	conditions	scale	quantity	value
PhoQ, residues 284 288 289 292 302 303 NLAAMI	PhoP, residues 12 14 15 18 19 NQFFI (Escherichia coli, UniProt P23836)	Sort-seq, measured: YFP reporter	E. coli	PhoQ-PhoP variant library, added: 10 µM Mg2+	relative to: high Mg2+ state, higher = stronger signaling	fold induction	17.4

Excerpt of the above (sample 2):
Oligonucleotide	RBNS enrichment (R)
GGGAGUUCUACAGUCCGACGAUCUGCUGGGGACAUUCCAGGCAGAUGAGCAGCCAUGCCCCAUAACGGCGUGCCCACAGUGGCCGGGCCAUGGCUUAGGCUUCCCUCAUGGUCACUUUGCCCAUUACGUCAGAUGGAAUUCUCGGGUGCCAA	0.189
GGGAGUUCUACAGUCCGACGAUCAACCCUGUCUUGAGAAAAACCAAUGAACAAAAAGGAAUUCCUUUCUUAAAAACGUUUAAUGCCAGGCUGUGGUCAAAAUCUCUAUUUUAUUUGUUUCUCCAGUAUAUAGCUGGAAUUCUCGGGUGCCAA	0.98
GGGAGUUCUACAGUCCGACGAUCCAGGUCUUUCACUGCAGAUGGGGCUGCUGUGGGAGUUGGGACUUGUUUGUUUUCCUUUUUGAGUUCACGUUGGAUCCUUUCUUGUACAACUUCUGCGGAAGGACACAGUAUGGAAUUCUCGGGUGCCAA	0.915
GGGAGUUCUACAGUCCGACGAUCCCAGCCAGUGUGGGUCUGAACAUCCCCGCCCACCCCCAGACUGCAUUCUCAUCAGGGUUUCUUGUGCCCUUCUGCUGUGGCAGUGACAACUGUGCCUAGCCGGGGCUGCCUGGAAUUCUCGGGUGCCAA	1.02
